Experimental data from different studies.
Each line is one published result; not all experiments were run side by side. “And” joins repeats or separate records; there may be more than shown. Numbers after ± are the reported error.

COc1cc2cc(-c3ccc(CC(=O)Nc4cc(C(C)(C)C(F)(F)F)no4)cn3)cnc2cc1OC
objective response rate (RECIST v1.1; RET-altered advanced solid tumour patients; oral, 150 mg once daily, phase I): 25%

FC(F)(F)Oc1cccc(-c2cnc3ccc(-c4ccncc4)nn23)c1
tumour growth (bioluminescence; mouse, MDA-MB-231-Luc xenograft; 10 mg/kg, day 21): 150% and 805% and 408% and 447% and 346% and 606%

N#CCC1CCN(c2nc(Nc3ccc(N4CCC(O)CC4)cc3)c3c(=O)[nH]ncc3n2)CC1
osteopontin level change (Olink multiplex; human, serum; 20 mg, day 29, unit not given; reference: baseline): -1.05

COc1cc(Nc2ncc3c(n2)-c2ccc(Cl)cc2C(c2c(F)cccc2OC)=NC3)ccc1C(=O)O
relative tumour volume T/C (mouse, NB-EBc1 neuroblastoma xenograft; oral, 5.2 mg/kg, day 7; reference: vehicle): 2.14

CC1(C)CCC(CN2CCN(c3ccc(C(=O)NS(=O)(=O)c4ccc(NCC5CCOCC5)c([N+](=O)[O-])c4)c(Oc4cnc5[nH]ccc5c4)c3)CC2)=C(c2ccc(Cl)cc2)C1
EC50 (cell killing; canine lymph node CD21+ B cells, dog 39; 24 h): 35.7 nM

CCCOc1ccn2c(C(C)=O)cc(-c3ccccc3S(C)(=O)=O)c2c1
viability (OCI-Ly1; 0.5 µM, 120 h): 110%

O=C(O)CSc1nnc(Br)n1-c1ccc(C2CC2)c2ccccc12
serum uric acid (mouse, acute hyperuricaemia model; 1 mg/kg): 1050 ± 129 µM

CC(=O)NCC(=O)NCC(=O)N[C@H](C(=O)N[C@@H](Cc1ccc(O)cc1)C(=O)N[C@@H](CO)C(=O)N[C@H]1CSSC[C@@H](C(=O)N[C@@H](CCCNC(=N)N)C(=O)N2CCC[C@H]2C(=O)N[C@@H](CCC(N)=O)C(=O)N[C@@H](CCCNC(=N)N)C(=O)NCC(=O)NCCC(=O)N[C@@H](CCCCNC(=O)CN(CC(=O)NCCCC[C@H](NC(=O)CCNC(=O)CNC(=O)[C@H](CCCNC(=N)N)NC(=O)[C@H](CCC(N)=O)NC(=O)[C@@H]2CCCN2C(=O)[C@H](CCCNC(=N)N)NC(=O)[C@@H]2CSSC[C@H](NC(=O)[C@H](CO)NC(=O)[C@H](Cc3ccc(O)cc3)NC(=O)[C@@H](NC(=O)CNC(=O)CNC(C)=O)[C@@H](C)O)C(=O)N[C@@H](Cc3c[nH]cn3)C(=O)N[C@@H](Cc3ccccc3)C(=O)NCC(=O)N[C@@H](C)C(=O)N[C@@H](CC(C)C)C(=O)N[C@@H]([C@@H](C)O)C(=O)N[C@@H](Cc3c[nH]c4ccccc34)C(=O)N[C@@H](C(C)C)C(=O)N2)C(N)=O)C(=O)CCN)C(N)=O)NC(=O)[C@H](C(C)C)NC(=O)[C@H](Cc2c[nH]c3ccccc23)NC(=O)[C@H]([C@@H](C)O)NC(=O)[C@H](CC(C)C)NC(=O)[C@H](C)NC(=O)CNC(=O)[C@H](Cc2ccccc2)NC(=O)[C@H](Cc2c[nH]cn2)NC1=O)[C@@H](C)O
haemoglobin (healthy BALB/c mice; subcutaneous, 0.08 mg/kg, 8 d, single dose): 151 g/L

CCN(Cc1nc2c(N)nc3cc(-c4cc[nH]n4)ccc3c2[nH]1)C(C)=O
objective response rate (RECIST v1.1; advanced solid tumour patients; dose not given, monotherapy arm): 0%

CC(=O)O[C@H]1C(=O)[C@@]2(C)[C@H]([C@H](OC(=O)c3ccccc3)[C@]3(O)C[C@H](OC(=O)[C@H](O)[C@@H](NC(=O)c4ccccc4)c4ccccc4)C(C)=C1C3(C)C)[C@]1(OC(C)=O)CO[C@@H]1C[C@@H]2O
tumour volume (rats, DMBA-induced mammary tumours; dose not given, day 21): 0.17 ± 0.03 cm3

OC(CCN1CCCCC1)(c1ccccc1)C1CC2C=CC1C2 (stereo not drawn)
EEG beta power, O2 Pz, change in (resting-state EEG; healthy elderly humans; oral, 4 mg, eyes closed, LS mean; reference: baseline): -13.7%

N#Cc1ccc2c(-c3ccncc3)c(-c3ccc(F)cc3)nn2c1
log2 fold change (kinase binding, competitor, MIB/MS competition, refers to: SSK2; Candida albicans cell lysate; 1 µM; reference: DMSO): -0.0627

O=C(NS(=O)(=O)C1CC1)c1cc2ccccc2n1Cc1ccc(C2CC2)c2ccccc12
serum uric acid (male mouse, acute hyperuricaemia model, serum; oral, 2 mg/kg, 4 h): 327 ± 101 µM

CN(C)C(=O)c1cc2cnc(Nc3ccc(N4CCNCC4)cn3)nc2n1C1CCCC1
normalized enrichment score (RNA-seq GSEA, refers to: HALLMARK_MITOTIC_SPINDLE; MB002 tumour; concentration not given, in vivo; reference: vehicle, direction not given): 1.78

C[C@@H](O)CCOC(=O)C[C@@H](C)O
metabolite level (refers to: C3 acylcarnitine; human, plasma; 60 min, log2-transformed values): -1.65 ± 0.65 µmol/L

c1ccc(-c2cc(-c3ccccc3)n(Cn3ccnc3)n2)cc1
wound size (rat, STZ-nicotinamide diabetic; 75 mg/kg, 72 h, full-thickness excision wound): 18.1 mm

[Cl-].[Cl-].[Pt+2].[Ru+2].c1ccc(-c2nccnc2-c2ccccn2)nc1.c1cnc2c(c1)ccc1cccnc12.c1cnc2c(c1)ccc1cccnc12
activation enthalpy (concentration not given, second substitution step, added: guanosine 5'-monophosphate): 10.5 ± 0.956 kcal/mol

C[C@H](Oc1ccc(Br)cc1-c1ccon1)C(=O)O
difference from placebo (peak grip force, handgrip dynamometry; healthy human; 200 mg, SAD): -1.05 kg

O=C(NS(=O)(=O)c1ccccc1)c1cc2ccccc2n1Cc1ccc(Br)c2ccccc12
serum uric acid decrease (mouse, acute hyperuricaemia model, serum; oral, 2 mg/kg; reference: vehicle model): 82.5%

COc1nnc2ccc(N3CCC(c4ccc(OCCN5CCN(C)C(=O)[C@H]5C)cc4)CC3)nn12
time above HEXIM1 threshold (human patients; 10 mg once daily, 1.5-fold above baseline): 4.56 h

C[C@H]1C[C@H]2CSC(N)=N[C@@]2(c2nc(NC(=O)c3ccc(OC(F)F)cn3)cs2)CO1
plasma Aβx-40 change (healthy adults, fed, plasma; oral, 200 mg single dose, 48 h; reference: baseline, placebo-adjusted): -62.4%

COc1c(C)c2c(c(O)c1C/C=C(\C)CCC(=O)OCCN1CCOCC1)C(=O)OC2
IC15 (barrier function (TEER); human ileal GI microtissue EpiIntestinal-FT): > 100000 nM

Cn1cc(Nc2nccc(-c3ccc4c(c3)CN(C3COC3)CC[C@H]4NC(=O)c3cn(C(C)(C)C)nn3)n2)cn1
pathway activation z-score (refers to: mevalonate pathway I; splenic B cells, mice; 30 mg/kg, IgD-activated in vivo; reference: vehicle, direction not given): -1.34

O=C1c2ccncc2C(=O)c2c1[nH]c1ccccc21
right ventricular fibrosis (female monocrotaline PAH rat; intravenous, 1 mg/kg every 48 h, day 17 to 27; reference: vehicle): decreased

Cc1noc(C)c1-c1cc(C(O)(c2ccccn2)c2ccccn2)c2nc(C3CC3)[nH]c2c1
maximum inhibition (refers to: CCR2 expression; human, peripheral blood; 2 mg, day 1, 1604 study): 14%

[Mn+2]
CD18-low cell fraction (flow cytometry; conventional CD4-high T cells, BALB/c mouse; dose not given; reference: no Mn2+): 89.2 and 4.39 and 94.7 and 94.4 and 98.8 and 96.1 and 4.75

N=C(N)NCCC[C@H](NC(=O)[C@H](CCCNC(=N)N)NC(=O)[C@H](CCCCN)NC(=O)[C@H](CCC(N)=O)NC(=O)[C@H](CCCCN)NC(=O)[C@H](Cc1ccc(O)cc1)NC(=O)[C@@H](N)CCCCN)C(=O)N[C@@H](CO)C(=O)N[C@@H](Cc1ccc(O)cc1)C(=O)N[C@@H](CCCCN)C(=O)O
VAS score (dentin hypersensitivity patients; 5 µg/tooth, day 36 post-study visit, two teeth per subject; direction not given): 55.7 ± 33.4

Cc1n[nH]c2ccc(-c3cc(OC[C@@H](N)Cc4ccccc4)cnc3-c3ccoc3)cc12
log2 fold change (kinase binding, competitor, MIB/MS competition, refers to: CMK1; Candida albicans cell lysate; 1 µM; reference: DMSO): 0.154

CSCCNc1nc(SCCC(F)(F)F)nc2c1ncn2[C@@H]1O[C@H](COP(=O)(O)OP(=O)(O)C(Cl)(Cl)P(=O)(O)O)[C@@H](O)[C@H]1O
inhibition (platelet aggregation, light transmission aggregometry; human patients, platelet-rich plasma; dose not given, 15 min, added: TRAP 5 µM): 22.9 ± 27.1%

NC(=O)c1cnc2[nH]ccc2c1N[C@@H]1[C@@H]2CC3C[C@H]1C[C@@](O)(C3)C2
percent change (CD4+ effector memory T cells, flow cytometry; Caucasian humans, peripheral blood; 60 mg single dose; reference: baseline): 0.02%

c1ccc(-c2n[nH]cc2-c2ccnc3ccccc23)nc1
log2 fold change (kinase binding, competitor, MIB/MS competition, refers to: TOR1; Candida albicans cell lysate; 1 µM; reference: DMSO): 1.01

O=C(c1ccc(OCCN2CCCCC2)cc1)c1c(-c2ccc(O)cc2)sc2cc(O)ccc12
paw licking time (male ICR-CD1 mice; intracerebroventricular, 100 µg/animal, 25 to 30 min, added: formalin 2%): 0 s

CCc1oc2ccccc2c1C(=O)c1cc(Br)c(O)c(Br)c1
serum uric acid decrease (mouse, acute hyperuricaemia model, serum; oral, 2 mg/kg; reference: vehicle model): 80.6%

COc1cc2nccc(Oc3ccc(NC(=O)NC4CC4)c(Cl)c3)c2cc1C(N)=O
rate constant of resistance appearance (PK/PD model NONMEM estimate; Thyroid cancer patients, differentiated, radioiodine-refractory): 0.259 /week

Cc1cc(C)c(CNC(=O)c2cc(Cl)c3c(c2C)O[C@@](C)([C@H]2CC[C@H](N(C)C)CC2)O3)c(=O)[nH]1
disease control rate (IWG criteria, CR or PR or SD; relapsed/refractory AITL patients; dose not given): 68%

[Cl-].[Cl-].[Pt+2].[Ru+2].c1ccc(-c2nc3cc4ccccc4cc3nc2-c2ccccn2)nc1.c1cnc2c(c1)ccc1cccnc12.c1cnc2c(c1)ccc1cccnc12
activation enthalpy (concentration not given, first substitution step, added: L-methionine): 6.21 ± 0.478 kcal/mol

CCCCC1(CCCC)CN(c2ccccc2)c2cc(SC)c(OCC(=O)N[C@@H](C(=O)NCC(=O)O)c3ccccc3)cc2S(=O)(=O)C1
plasma C4 (refers to: 7α-hydroxy-4-cholesten-3-one; human, plasma; 10 mg once daily, day 7): 64.5 ng/mL

CCc1c(C)nc(-c2ccc(Cl)s2)nc1Nc1ccc(CC(=O)O)cc1
collagen content (Sirius red staining; C57BL/6J mouse, MCD diet MASH model, liver; intraperitoneal, 0.3 mg/kg daily, MCD diet 6 weeks, dosed final two weeks; reference: untreated): decreased

O=C(O)CNC(=O)Cc1ccccc1
sarcomere length (ventricular cardiomyocytes, C57BL/6 mouse; dose not given, 0.776 s): 1.72 µm

CCCOc1ccc(-c2ccc(C#N)cc2)cc1
protein level (proteomics, refers to: Slc38a7; rat placenta; concentration not given, uterine perfusion, all three doses): increased

CC(C)[C@H](NC(=O)[C@H](Cc1ccc(O)cc1)NC(=O)[C@H](Cc1ccc(O)cc1)NC(=O)[C@@H]1CCCN1C(=O)[C@H](CCC(=O)O)NC(=O)[C@H](CCC(=O)O)NC(=O)[C@H](Cc1c[nH]c2ccccc12)NC(=O)[C@@H]1CCCN1C(=O)[C@@H](NC(=O)[C@H](CCC(N)=O)NC(=O)c1ccc2c(c1)C(=O)OC21c2ccc(O)cc2Oc2cc(O)ccc21)C(C)C)C(=O)N[C@H](C(=O)N[C@@H](CCCCN)C(=O)N[C@@H](CCCCN)C(=O)N[C@@H](CO)C(=O)N[C@@H](CO)C(=O)NCC(=O)NCC(N)=O)C(C)C
surgeons rating not improved (nerve discrimination; head and neck surgery patients; 500 mg; reference: white light): 35.7%

CN[C@@H](C)C(=O)N[C@H]1CN(S(=O)(=O)c2cccc(S(=O)(=O)N3CC[C@H]4CC[C@@H](C(=O)NC(c5ccccc5)c5ccccc5)N4C(=O)[C@@H](NC(=O)[C@H](C)NC)C3)c2)CC[C@H]2CC[C@@H](C(=O)NC(c3ccccc3)c3ccccc3)N2C1=O
duration of response (RECIST 1.1; advanced pancreatic cancer patients; dose not given, added: nab-paclitaxel plus gemcitabine): 7.36 months

O=P(O)(O)C(Cl)(Cl)P(=O)(O)O
GFAP-positive area (astrogliosis, immunostaining; Mus musculus, sham-operated, hippocampal fissure; dose not given, day 7; reference: total area): 3.71%

O=C(O)/C=C/c1nccc2c3ccccc3n(Cc3ccc(Br)c4ccccc34)c12
serum uric acid (male mouse, acute hyperuricaemia model, serum; oral, 2 mg/kg, 4 h): 241 ± 110 µM

CO[C@H]1CC[C@H](N2C(=O)CNc3ncc(-c4ccc(C(C)(C)O)nc4)nc32)CC1
pAKT change from baseline (flow cytometry; stimulated monocytes, human, blood; 30 mg single dose, 5 h, mean; reference: baseline): -46.3%

COc1ncc(-c2nc3c(n2C(C)C)[C@H](c2ccc(Cl)cc2)N(c2cc(Cl)cn(C)c2=O)C3=O)c(OC)n1
best overall response (International Working Group criteria; human acute myeloid leukemia patients; oral, 45 mg, response Unknown, low-dose, recommended dose for expansion): 3.7%

CC(=O)c1c(C)c2cnc(Nc3ccc(N4CCNCC4)cn3)nc2n(C2CCCC2)c1=O
Ki67 H-score (immunohistochemistry; MCF7, mouse xenograft; 50 mg/kg, 4 days, 96 h after dose; direction not given): 59.7

CC(C)NCC(O)c1ccc(O)c(O)c1 (stereo not drawn)
sarcomere length (ventricular cardiomyocytes, C57BL/6 mouse; dose not given, 0.348 s): 1.72 µm

A few entries again:
CO[C@H]1CC[C@H](N2C(=O)CNc3ncc(-c4ccc(C(C)(C)O)nc4)nc32)CC1
pAKT change from baseline (flow cytometry; stimulated monocytes, human, blood; 30 mg single dose, 5 h, mean; reference: baseline): -46.3%

CCc1c(C)nc(-c2ccc(Cl)s2)nc1Nc1ccc(CC(=O)O)cc1
collagen content (Sirius red staining; C57BL/6J mouse, MCD diet MASH model, liver; intraperitoneal, 0.3 mg/kg daily, MCD diet 6 weeks, dosed final two weeks; reference: untreated): decreased

c1ccc(-c2n[nH]cc2-c2ccnc3ccccc23)nc1
log2 fold change (kinase binding, competitor, MIB/MS competition, refers to: TOR1; Candida albicans cell lysate; 1 µM; reference: DMSO): 1.01

CN[C@@H](C)C(=O)N[C@H]1CN(S(=O)(=O)c2cccc(S(=O)(=O)N3CC[C@H]4CC[C@@H](C(=O)NC(c5ccccc5)c5ccccc5)N4C(=O)[C@@H](NC(=O)[C@H](C)NC)C3)c2)CC[C@H]2CC[C@@H](C(=O)NC(c3ccccc3)c3ccccc3)N2C1=O
duration of response (RECIST 1.1; advanced pancreatic cancer patients; dose not given, added: nab-paclitaxel plus gemcitabine): 7.36 months
